Experimental data collected from several papers.
Numbers after ± are the reported error.
APP Aβ40 fibrils: Amyloid-beta precursor protein, Aβ40 fibrils (APP, Homo sapiens, UniProt P05067)
APP: Amyloid-beta precursor protein (APP, Homo sapiens, UniProt P05067)

SMILES | target | assay | conditions | scale | endpoint | result
CCOC(=O)/C=C/c1c(-c2ccc(C)cc2)nc2ccc(/N=N/c3ccc([N+](=O)[O-])cc3)cc2c1-c1ccccc1 | APP Aβ40 fibrils | thioflavin T competition | with: preformed fibrils 5 µM, thioflavin T 2 µM | binding | Ki | 0.168 ± 0.017 µM
NC(Cc1ccccc1)C(O)CNCc1cccc(C(F)(F)F)c1 (stereo not shown) | Amyloid-beta precursor protein, amyloid-beta 1-40 oligomers (APP, Homo sapiens, UniProt P05067) | binding | – | – | Kd | ~2 µM
CC(=O)N[C@H]1CC(=O)N[C@@H](Cc2ccccc2)C(=O)N[C@@H](CCCNC(=N)N)C(=O)N[C@H](C(=O)N[C@@H](CC(=O)O)C(=O)N[C@H](C(=O)N[C@@H](CCCNC(=N)N)C(=O)N[C@@H](C)C(=O)N[C@@H](CCC(=O)O)C(=O)N[C@@H](CCCNC(=N)N)C(=O)N[C@@H](C)C(=O)N[C@@H](CCC(=O)O)C(N)=O)C(C)C)CNC1=O | Amyloid-beta precursor protein, Aβ40 oligomers (APP, Homo sapiens, UniProt P05067) | binding to amyloid-beta 40 oligomers, fluorescence polarization | pH 7.4, with: 20 nM FITC-labelled peptide | – | Kd | 16.5 µM
CC(C)C[C@H](NC(=O)[C@@H](N)Cc1ccccc1)C(=O)O | Amyloid-beta precursor protein, amyloid-beta 1-40 E22A (APP, Homo sapiens, UniProt P05067, E693A) | – | concentration not given | – | Kd | 112 ± 53 µM
COc1ccc2c(=O)c(OC)c(-c3ccc(OC)c(OC)c3)oc2c1 | APP | amyloid aggregation, inhibitor, fluorescence | – | – | IC50 | 155 µM
COc1cc(-c2nc3ccccc3s2)cc(CN2CCN(CC(=O)O)CCN(CC(=O)O)CC2)c1O | Amyloid-beta precursor protein, fibril (APP, Homo sapiens, UniProt P05067) | binding, fluorescence | – | – | Kd | 0.121 µM
COc1c(C(=O)/C=C/c2ccccc2)ccc2occc12 | APP | amyloid aggregation, inhibitor, fluorescence | – | – | IC50 | > 200 µM
C[C@@H]1NC(=O)C[C@H](NC(=O)CCNC(=S)Nc2ccc3c(c2)C(=O)OC32c3ccc(O)cc3Oc3cc(O)ccc32)C(=O)NC[C@@H](C(=O)N[C@@H](CC(=O)O)C(=O)N[C@@H](C)C(=O)N[C@@H](CCCNC(=N)N)C(=O)N[C@@H](C)C(=O)N[C@@H](CCC(=O)O)C(=O)N[C@@H](CCCNC(=N)N)C(=O)N[C@@H](C)C(=O)N[C@@H](CCC(=O)O)C(N)=O)NC(=O)[C@H](CCCNC(=N)N)NC1=O | APP Aβ40 fibrils | binding to Aβ40 fibrils, fluorescence polarization | 24 h, pH 7.4, 25 °C, with: 100 µM Aβ40 fibrils | – | Kd | ~12.9 µM
Cc1ccc(-c2nc3ccc(/N=N/c4ccc([N+](=O)[O-])cc4)cc3c(-c3ccccc3)c2I)cc1 | APP Aβ40 fibrils | thioflavin T competition | with: preformed fibrils 5 µM, thioflavin T 2 µM | binding | Ki | 0.204 ± 0.019 µM
CC(=O)N[C@H]1CC(=O)N[C@@H](Cc2ccccc2)C(=O)N[C@@H](CCCNC(=N)N)C(=O)N[C@H](C(=O)N[C@@H](CC(=O)O)C(=O)N[C@H](C(=O)N[C@@H](CCCNC(=N)N)C(=O)N[C@@H](C)C(=O)N[C@@H](CCCNC(=N)N)C(=O)N[C@@H](CCC(=O)O)C(=O)N[C@@H](C)C(=O)N[C@@H](CCC(=O)O)C(N)=O)C(C)C)CNC1=O | APP Aβ40 fibrils | binding to Aβ40 fibrils, fluorescence polarization | 24 h, pH 7.4, 25 °C, with: 100 µM Aβ40 fibrils | – | Kd | 19 µM
COc1cc2c(c3oc(-c4ccccc4)cc(=O)c13)C=CC(C)(C)O2 | APP | amyloid aggregation, inhibitor, fluorescence | – | – | IC50 | 109 µM
CC(=O)N[C@H]1CC(=O)N[C@@H](Cc2ccccc2)C(=O)N[C@@H](CC(=O)O)C(=O)N[C@H](C(=O)N[C@@H](CCCNC(=N)N)C(=O)N[C@H](C(=O)N[C@@H](CCCNC(=N)N)C(=O)N[C@@H](C)C(=O)N[C@@H](CCC(=O)O)C(=O)N[C@@H](CCCNC(=N)N)C(=O)N[C@@H](C)C(=O)N[C@@H](CCC(=O)O)C(N)=O)C(C)C)CNC1=O | APP Aβ40 fibrils | binding to Aβ40 fibrils, fluorescence polarization | 24 h, pH 7.4, 25 °C, with: 100 µM Aβ40 fibrils | – | Kd | 24.6 µM
COC1(c2ccccc2)CC(=O)c2c(cc3c(c2O)C=CC(C)(C)O3)O1 (stereo not shown) | APP | amyloid aggregation, inhibitor, fluorescence | – | – | IC50 | > 200 µM

For quick reference, copied from above:
SMILES | target | assay | conditions | scale | endpoint | result
COc1cc2c(c3oc(-c4ccccc4)cc(=O)c13)C=CC(C)(C)O2 | APP | amyloid aggregation, inhibitor, fluorescence | – | – | IC50 | 109 µM
